# Measurements gathered from unrelated publications.
# Lines come from different studies, so protocols differ. ± gives the spread as reported.
# Target: Amine oxidase [flavin-containing] B (MAOB, Homo sapiens, UniProt P27338)
# UniProt P27338, sequence (whole entry, looked up): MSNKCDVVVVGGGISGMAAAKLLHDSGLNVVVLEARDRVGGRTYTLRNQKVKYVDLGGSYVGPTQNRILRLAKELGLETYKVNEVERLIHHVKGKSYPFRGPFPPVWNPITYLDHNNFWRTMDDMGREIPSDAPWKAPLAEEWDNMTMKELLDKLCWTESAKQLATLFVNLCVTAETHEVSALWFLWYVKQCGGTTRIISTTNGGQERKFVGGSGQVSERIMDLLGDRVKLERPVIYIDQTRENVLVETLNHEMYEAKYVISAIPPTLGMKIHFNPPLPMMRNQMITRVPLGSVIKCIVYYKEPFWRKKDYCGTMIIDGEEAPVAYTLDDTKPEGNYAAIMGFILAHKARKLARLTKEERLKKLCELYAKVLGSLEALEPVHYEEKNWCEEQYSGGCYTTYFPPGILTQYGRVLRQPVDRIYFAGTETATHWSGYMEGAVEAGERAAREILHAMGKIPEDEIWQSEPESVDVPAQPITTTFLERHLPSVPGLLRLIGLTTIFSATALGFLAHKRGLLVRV
SMILES,assay,setting,how to read,measurement,value
CC(=O)C1=C(C)NC(SCCCSc2nnc(Cc3ccccc3Nc3c(Cl)cccc3Cl)n2-c2ccc(Cl)c(Cl)c2)=NC1c1ccccc1 (stereo not shown),fluorometric,,baseline: IC50 hMAO-A over IC50 hMAO-B,selectivity ratio,0.1
NC1CC1c1ccc(NC(=O)C(CCc2ccccc2)NC(=O)OCc2ccccc2)cc1 (stereo not shown),"enzyme activity, inhibitor, HRP-coupled","100 µM, added: benzylamine",,inhibition,42%
NC(=O)N/N=C/c1ccc(OCc2ccccc2)cc1,"enzyme activity, inhibitor, absorbance",10 µM,,remaining activity,13.4%
CC(=O)C1=C(C)NC(SCCCSc2nnc(Cc3ccccc3Nc3c(Cl)cccc3Cl)n2-c2ccc(Cl)c(Cl)c2)=NC1c1ccc(Cl)cc1 (stereo not shown),fluorometric,,baseline: IC50 hMAO-A over IC50 hMAO-B,selectivity ratio,0.7
C[C@H](NCc1ccc(-c2ccc(C(F)(F)F)cc2)cc1)C(N)=O,enzyme activity,"1 µM, added: kynuramine 50.0 µM",,inhibition,> 99%
O=C1CCCC2=C1C(c1c[nH]c3ccccc13)n1c(sc(=Cc3c[nH]c4ccccc34)c1=O)=N2 (stereo not shown),enzyme activity,,baseline: MAO-A IC50 over MAO-B IC50,selectivity ratio,3.1
CCS(=O)(=O)N1CCN(CC(=O)Nc2ccc(/C=C/C(=O)c3ccc(OC)c(OC)c3)cc2)CC1,"enzyme activity, inhibitor, fluorometric",1000 µM,,inhibition,52.9 ± 1.77%
NC1CC1c1ccc(NC(=O)C(Cc2ccccc2)NC(=O)OCc2ccc(Br)cc2)cc1 (stereo not shown),"enzyme activity, inhibitor, HRP-coupled","100 µM, added: benzylamine",,inhibition,29%
COc1ccc(C2N=C(SCCCSc3nnc(Cc4ccccc4Nc4c(Cl)cccc4Cl)n3-c3ccc(Cl)c(Cl)c3)NC(C)=C2C(C)=O)cc1 (stereo not shown),fluorometric,,baseline: IC50 hMAO-A over IC50 hMAO-B,selectivity ratio,0.3
Fc1cccc(COc2ccc(/C=N/NC(=S)Nc3ccccc3)cc2)c1,"enzyme activity, inhibitor, absorbance",10 µM,,remaining activity,54.4%

# For quick reference, copied from above:
SMILES,assay,setting,how to read,measurement,value
CC(=O)C1=C(C)NC(SCCCSc2nnc(Cc3ccccc3Nc3c(Cl)cccc3Cl)n2-c2ccc(Cl)c(Cl)c2)=NC1c1ccc(Cl)cc1 (stereo not shown),fluorometric,,baseline: IC50 hMAO-A over IC50 hMAO-B,selectivity ratio,0.7
